Measurements gathered from unrelated publications.
Protocols differ between the studies behind these lines.

Structure (SMILES) | test | test system | setting | how to read | endpoint | value
C1=C/COCc2cc(ccc2OCCN2CCCC2)Nc2nccc(n2)-c2cccc(c2)COC/1 | – | rat plasma | 1200 ng/mL, 24 h, 4 °C | reference: nominal concentration | stability relative error | -1.64%
O=C(NCCN1CCCC1)c1cc(-c2ccc(CN3CCOCC3)cc2)nc2ccc(F)cc12 | – | human whole blood | ambient | – | stability duration | 1 h
O=C(N/N=C/c1ccccc1O)c1ccncc1 | – | rat plasma | 23 µM, 12 h, 5 °C, post-preparative | – | stability | 97.6%
CCOc1c([C@H](C)n2nc(C)c3c(N)ncnc32)cc(Cl)c(F)c1[C@@H]1CNC(=O)C1 | – | rat plasma | 800 ng/mL, 3 weeks, -80 °C, frozen storage | reference: nominal concentration | stability relative error | 3.5%
Cc1c2c(c(O)c3c(OC(=O)c4cccnc4)cccc13)C(=O)[C@]1(O)C(=O)C(C(N)=O)=C(O)[C@@H](N(C)C)[C@@H]1C2 | LC-MS | Escherichia coli cell lysate | – | – | stability time | ≥ 16 h
CCC[C@H](N[C@@H](C)C(=O)N1[C@H](C(=O)O)C[C@@H]2CCCC[C@@H]21)C(=O)O | – | human whole blood | 16.0 ng/mL, 30 h, 8 °C, autosampler, high QC | – | stability | 90.5%
COC(=O)/C=C/c1cc(C(=O)NCc2ccc(C)cc2)cc(-c2ccc3ncnn3c2)c1 | – | simulated intestinal fluid | 2 h | – | stability | stable
O=C(O)CN1Cc2cccc(n2)CN(CC(=O)O)Cc2cccc(n2)C1 | voltammetry, Nernst equation | – | Mn(III) complex | – | stability constant log β | 7.65
CCN(CC)Cc1ccc2cc(COC(=O)Nc3ccc(C(=O)NO)cc3)ccc2c1 | – | rat plasma | 5 ng/mL, 4 h, 10 °C, autosampler | reference: nominal concentration | stability relative error | 99.1%
C=CC(=O)N1CCC[C@@H](n2nc(-c3ccc(Oc4ccccc4)cc3)c3c(N)ncnc32)C1 | phase solubility | – | 72 h, room temperature, together with: hydroxypropyl-beta-cyclodextrin | – | stability constant | 217 M⁻¹

Excerpt of the above:
Structure (SMILES) | test | test system | setting | how to read | endpoint | value
CCN(CC)Cc1ccc2cc(COC(=O)Nc3ccc(C(=O)NO)cc3)ccc2c1 | – | rat plasma | 5 ng/mL, 4 h, 10 °C, autosampler | reference: nominal concentration | stability relative error | 99.1%
